{"data": "Measurements of several laboratories", "KCNA2/KCNA1": "KCNA2/KCNA1 (Homo sapiens, UniProt P16389+Q09470)", "HDAC11": "Histone deacetylase 11 (HDAC11, Homo sapiens, UniProt Q96DB2)", "note": "Protocols differ between the studies behind these lines. “And” joins repeats or separate records; there may be more than shown. ± marks the error that the study gave.", "sequence of UniProt P20618 (whole entry, looked up)": "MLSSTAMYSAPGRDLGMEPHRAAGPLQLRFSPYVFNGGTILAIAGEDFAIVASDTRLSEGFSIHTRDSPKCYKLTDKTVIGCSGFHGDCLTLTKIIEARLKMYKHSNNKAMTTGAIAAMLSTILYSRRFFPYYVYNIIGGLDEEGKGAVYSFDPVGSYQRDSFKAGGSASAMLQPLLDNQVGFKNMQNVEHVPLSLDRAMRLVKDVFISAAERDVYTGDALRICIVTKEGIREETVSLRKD", "sequence of UniProt P28074 (whole entry, looked up)": "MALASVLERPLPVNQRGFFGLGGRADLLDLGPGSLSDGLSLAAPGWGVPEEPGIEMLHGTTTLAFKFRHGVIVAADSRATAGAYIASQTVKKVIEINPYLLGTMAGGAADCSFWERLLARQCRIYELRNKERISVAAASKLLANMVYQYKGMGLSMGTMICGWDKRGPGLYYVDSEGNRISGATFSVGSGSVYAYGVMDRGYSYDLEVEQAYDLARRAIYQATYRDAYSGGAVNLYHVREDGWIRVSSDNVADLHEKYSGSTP", "sequence of UniProt Q96DB2 (whole entry, looked up)": "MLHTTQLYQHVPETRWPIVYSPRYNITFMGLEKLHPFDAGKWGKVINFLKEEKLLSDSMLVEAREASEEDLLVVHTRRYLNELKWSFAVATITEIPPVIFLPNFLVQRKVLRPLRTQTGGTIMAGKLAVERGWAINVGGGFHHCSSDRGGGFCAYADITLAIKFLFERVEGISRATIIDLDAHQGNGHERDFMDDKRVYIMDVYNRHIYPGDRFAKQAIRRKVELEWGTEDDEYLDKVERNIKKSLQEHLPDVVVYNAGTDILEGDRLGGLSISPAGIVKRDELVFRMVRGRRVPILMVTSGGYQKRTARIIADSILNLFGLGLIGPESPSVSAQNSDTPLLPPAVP", "sequence of UniProt P16389 (whole entry, looked up)": "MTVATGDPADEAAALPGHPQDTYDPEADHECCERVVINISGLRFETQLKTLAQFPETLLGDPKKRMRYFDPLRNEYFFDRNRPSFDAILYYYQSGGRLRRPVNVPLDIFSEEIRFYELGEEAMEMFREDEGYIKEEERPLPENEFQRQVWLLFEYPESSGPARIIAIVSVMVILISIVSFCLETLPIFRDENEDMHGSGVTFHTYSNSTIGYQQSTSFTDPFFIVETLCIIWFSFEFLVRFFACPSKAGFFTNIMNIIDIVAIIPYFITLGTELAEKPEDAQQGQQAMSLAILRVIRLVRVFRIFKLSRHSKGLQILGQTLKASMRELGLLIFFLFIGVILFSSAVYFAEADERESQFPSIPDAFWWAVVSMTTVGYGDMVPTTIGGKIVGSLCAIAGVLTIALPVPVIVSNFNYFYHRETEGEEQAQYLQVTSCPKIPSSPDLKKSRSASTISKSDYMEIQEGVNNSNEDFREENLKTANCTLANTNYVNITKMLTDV", "sequence of UniProt Q09470 (whole entry, looked up)": "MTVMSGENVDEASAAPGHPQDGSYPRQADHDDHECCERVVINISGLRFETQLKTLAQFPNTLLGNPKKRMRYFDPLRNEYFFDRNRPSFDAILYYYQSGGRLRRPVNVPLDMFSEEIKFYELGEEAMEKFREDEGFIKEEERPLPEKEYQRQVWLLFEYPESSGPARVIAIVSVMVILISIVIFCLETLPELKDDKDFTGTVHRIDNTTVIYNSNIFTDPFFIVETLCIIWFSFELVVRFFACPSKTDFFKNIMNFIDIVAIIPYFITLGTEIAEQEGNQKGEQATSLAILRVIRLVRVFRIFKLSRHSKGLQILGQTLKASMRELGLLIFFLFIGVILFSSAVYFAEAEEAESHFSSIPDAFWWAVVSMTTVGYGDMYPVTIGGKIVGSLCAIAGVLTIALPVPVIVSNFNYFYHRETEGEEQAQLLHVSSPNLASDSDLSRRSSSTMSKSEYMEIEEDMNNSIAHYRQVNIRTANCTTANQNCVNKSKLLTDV", "sequence of UniProt P03303 (whole entry, looked up)": "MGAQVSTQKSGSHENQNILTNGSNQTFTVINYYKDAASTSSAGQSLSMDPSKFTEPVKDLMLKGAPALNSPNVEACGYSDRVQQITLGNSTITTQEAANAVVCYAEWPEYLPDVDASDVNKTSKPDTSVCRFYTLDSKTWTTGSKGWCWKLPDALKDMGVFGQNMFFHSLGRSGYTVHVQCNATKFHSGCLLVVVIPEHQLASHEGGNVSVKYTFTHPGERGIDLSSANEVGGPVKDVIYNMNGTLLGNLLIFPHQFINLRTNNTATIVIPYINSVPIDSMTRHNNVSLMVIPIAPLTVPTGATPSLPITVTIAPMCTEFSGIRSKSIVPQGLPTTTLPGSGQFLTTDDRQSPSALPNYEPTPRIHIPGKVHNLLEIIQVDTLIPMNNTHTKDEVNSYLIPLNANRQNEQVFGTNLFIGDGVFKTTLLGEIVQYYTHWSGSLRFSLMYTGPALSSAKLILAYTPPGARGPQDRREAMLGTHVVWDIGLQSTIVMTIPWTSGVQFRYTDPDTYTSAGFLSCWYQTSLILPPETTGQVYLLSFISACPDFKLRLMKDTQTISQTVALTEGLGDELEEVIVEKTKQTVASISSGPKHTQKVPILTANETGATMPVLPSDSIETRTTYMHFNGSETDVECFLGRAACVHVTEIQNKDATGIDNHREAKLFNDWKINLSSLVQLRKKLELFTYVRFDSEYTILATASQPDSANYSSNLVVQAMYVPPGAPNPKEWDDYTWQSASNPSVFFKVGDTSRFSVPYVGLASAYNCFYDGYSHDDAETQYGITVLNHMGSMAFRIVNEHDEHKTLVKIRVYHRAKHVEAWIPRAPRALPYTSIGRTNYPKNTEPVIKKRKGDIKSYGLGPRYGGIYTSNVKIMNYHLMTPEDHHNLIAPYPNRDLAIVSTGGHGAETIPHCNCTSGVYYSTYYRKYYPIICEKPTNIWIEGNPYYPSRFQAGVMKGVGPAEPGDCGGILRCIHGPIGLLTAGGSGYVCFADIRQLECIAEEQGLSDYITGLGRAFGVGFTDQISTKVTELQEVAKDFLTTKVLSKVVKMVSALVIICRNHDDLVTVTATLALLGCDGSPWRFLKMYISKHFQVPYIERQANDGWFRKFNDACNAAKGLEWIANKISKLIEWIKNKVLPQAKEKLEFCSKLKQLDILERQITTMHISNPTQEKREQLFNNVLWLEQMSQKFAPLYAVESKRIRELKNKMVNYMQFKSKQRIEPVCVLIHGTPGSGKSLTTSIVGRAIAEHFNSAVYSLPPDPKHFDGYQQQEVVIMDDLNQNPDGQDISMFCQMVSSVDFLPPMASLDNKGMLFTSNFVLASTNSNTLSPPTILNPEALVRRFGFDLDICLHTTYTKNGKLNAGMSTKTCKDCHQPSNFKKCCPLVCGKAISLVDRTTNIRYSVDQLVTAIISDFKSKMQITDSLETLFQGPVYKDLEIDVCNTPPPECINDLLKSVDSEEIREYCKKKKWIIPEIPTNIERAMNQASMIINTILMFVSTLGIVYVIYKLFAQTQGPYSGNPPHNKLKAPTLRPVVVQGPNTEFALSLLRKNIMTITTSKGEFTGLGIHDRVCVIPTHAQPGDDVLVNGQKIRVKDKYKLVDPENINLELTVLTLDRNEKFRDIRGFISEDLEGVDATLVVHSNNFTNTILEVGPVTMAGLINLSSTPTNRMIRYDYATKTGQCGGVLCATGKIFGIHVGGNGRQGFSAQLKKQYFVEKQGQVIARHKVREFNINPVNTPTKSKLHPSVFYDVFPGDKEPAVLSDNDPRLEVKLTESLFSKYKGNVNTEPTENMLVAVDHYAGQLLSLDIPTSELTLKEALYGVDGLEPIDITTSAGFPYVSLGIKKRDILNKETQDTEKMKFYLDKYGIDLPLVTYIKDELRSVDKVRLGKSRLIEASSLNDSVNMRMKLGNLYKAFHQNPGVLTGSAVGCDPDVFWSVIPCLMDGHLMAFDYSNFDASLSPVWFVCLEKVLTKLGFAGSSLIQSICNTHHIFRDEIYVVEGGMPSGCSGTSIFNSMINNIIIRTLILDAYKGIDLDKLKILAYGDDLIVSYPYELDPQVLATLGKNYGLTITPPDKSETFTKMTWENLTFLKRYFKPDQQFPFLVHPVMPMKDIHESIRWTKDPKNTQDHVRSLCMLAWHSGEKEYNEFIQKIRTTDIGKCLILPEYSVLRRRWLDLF", "sequence of UniProt Q9HT15 (whole entry, looked up)": "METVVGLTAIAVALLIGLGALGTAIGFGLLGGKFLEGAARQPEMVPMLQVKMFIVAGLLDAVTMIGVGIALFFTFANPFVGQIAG", "sequence of UniProt Q9NPD5 (whole entry, looked up)": "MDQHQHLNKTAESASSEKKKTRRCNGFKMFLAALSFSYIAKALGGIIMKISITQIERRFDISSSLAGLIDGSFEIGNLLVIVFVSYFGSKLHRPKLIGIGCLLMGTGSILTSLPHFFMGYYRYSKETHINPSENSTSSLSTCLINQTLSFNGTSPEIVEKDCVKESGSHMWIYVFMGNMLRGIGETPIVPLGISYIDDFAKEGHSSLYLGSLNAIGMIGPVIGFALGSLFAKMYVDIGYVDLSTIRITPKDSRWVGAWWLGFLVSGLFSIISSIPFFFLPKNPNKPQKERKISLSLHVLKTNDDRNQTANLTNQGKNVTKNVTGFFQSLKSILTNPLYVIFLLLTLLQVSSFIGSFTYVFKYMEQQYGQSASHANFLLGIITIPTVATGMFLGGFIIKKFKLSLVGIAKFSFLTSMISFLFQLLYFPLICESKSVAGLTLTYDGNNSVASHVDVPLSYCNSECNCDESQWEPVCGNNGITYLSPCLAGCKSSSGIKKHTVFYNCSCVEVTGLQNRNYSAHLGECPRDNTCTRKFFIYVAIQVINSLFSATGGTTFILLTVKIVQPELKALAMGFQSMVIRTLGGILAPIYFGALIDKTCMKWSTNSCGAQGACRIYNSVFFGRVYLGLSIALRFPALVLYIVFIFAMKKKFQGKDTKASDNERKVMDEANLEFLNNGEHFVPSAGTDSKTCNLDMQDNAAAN", "sequence of UniProt Q14011 (whole entry, looked up)": "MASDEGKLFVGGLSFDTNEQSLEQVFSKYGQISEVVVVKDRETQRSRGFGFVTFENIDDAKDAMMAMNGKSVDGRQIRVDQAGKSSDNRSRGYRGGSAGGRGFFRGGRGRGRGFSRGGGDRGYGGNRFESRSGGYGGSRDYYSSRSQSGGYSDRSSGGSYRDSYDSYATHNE"}
{"SMILES": "Cc1ccc(-c2nn(-c3ccc(S(C)(=O)=O)cc3)cc2/C=N/N=C2/NC(=O)CS2)cc1", "target": "Epidermal growth factor receptor (EGFR, Homo sapiens, UniProt P00533)", "assay": "enzyme activity, inhibitor", "IC50": "43 nM"}
{"SMILES": "C=C(F)C(=O)Nc1cnn2ccc(-c3ccc(C4CCCCC4)cc3)nc12", "target": "Transcriptional enhancer factor TEF-3 (TEAD4, Homo sapiens, UniProt Q15561)", "assay": "enzyme activity, inhibitor", "IC50": "91.9 nM"}
{"SMILES": "NCC(=O)NCC(=O)N[C@@H](Cc1c[nH]c2ccccc12)C(=O)N[C@@H](CO)C(=O)N[C@@H](Cc1c[nH]cn1)C(=O)N[C@@H](Cc1c[nH]c2ccccc12)C(=O)O", "target": "Fibronectin (FN1, Homo sapiens, UniProt P02751)", "assay": "binding, inhibitor", "conditions": "pH 4.5", "IC50": "1000 nM"}
{"SMILES": "CC[C@H](C)[C@H](NC(=O)CNC(=O)C1CCN(C(=O)[C@H](CO)NC(=O)[C@@H](N)Cc2c[nH]cn2)CC1)C(=O)N[C@@H](Cc1ccccc1)C(=O)N[C@H](C(=O)N[C@@H](CC(=O)O)C(=O)N[C@@H](CO)C(=O)N[C@@H](Cc1ccc(O)cc1)C(=O)N[C@@H](CO)C(=O)N[C@@H](CCCNC(=N)N)C(=O)N[C@@H](Cc1ccc(O)cc1)C(=O)N[C@@H](CCCNC(=N)N)C(=O)N[C@@H](CCCCN)C(=O)NC(C)(C)C(=O)N[C@@H](C)C(=O)N[C@@H](C)C(=O)N[C@H](C(=O)N[C@@H](CCCCN)C(=O)N[C@@H](CCCCN)C(=O)N[C@@H](Cc1ccc(O)cc1)C(=O)N[C@@H](CC(C)C)C(=O)N[C@@H](C)C(=O)N[C@@H](C)C(=O)N[C@H](C(=O)N[C@@H](CC(C)C)C(=O)NC(C)(C)C(=O)N[C@@H](CCCCN)C(=O)N[C@@H](CCCNC(=N)N)C(=O)N[C@@H](Cc1ccc(O)cc1)C(=O)N[C@@H](CCCCN)C(=O)N[C@@H](CCC(N)=O)C(=O)N[C@@H](CCCCN)C(=O)N[C@H](C(=O)N[C@@H](CCCCN)C(=O)N[C@@H](CC(N)=O)C(=O)N[C@H](CCCCN)C(N)=O)C(C)C)C(C)C)C(C)C)[C@@H](C)O", "target": "Vasoactive intestinal polypeptide receptor 1 (VIPR1, Homo sapiens, UniProt P32241)", "assay": "ligand displacement, radioligand", "IC50": "> 1000 nM"}
{"SMILES": "CNC(=O)C1CCN(c2ccccc2NC(=O)c2ccc(-c3cc(O)ccc3C)cc2)CC1", "target": "Ephrin type-A receptor 5 (EPHA5, Homo sapiens, UniProt P54756)", "assay": "target engagement in cells, BRET", "IC50": "54.5 nM"}
{"SMILES": "Cc1nc(NC(=O)c2ccccc2)sc1-c1csc(Nc2ccc(O)c(C(=O)O)c2)n1", "target": "CIRBP (Homo sapiens, UniProt Q14011)", "assay": "RNA binding, inhibitor, fluorescence anisotropy", "conditions": "with: fluorescein-labelled RNA motif", "IC50": "6400 nM"}
{"SMILES": "N=C(N)NCCCC(N)C(=O)NCC(=O)NC(CCCCNC(=N)NCCCSCC1OC(n2cnc3c(N)ncnc32)C(O)C1O)C(N)=O (centres unmarked)", "target": "Histone-lysine N-methyltransferase SETD7 (SETD7, Homo sapiens, UniProt Q8WTS6)", "assay": "enzyme activity, inhibitor, fluorescence", "IC50": "> 100000 nM"}
{"SMILES": "COCCn1cc(COc2cccc(Cc3cnc(NC(=O)C(C)c4ccc(CC(C)C)cc4)s3)c2)nn1 (centres unmarked)", "target": "NAD-dependent protein deacetylase sirtuin-3, mitochondrial (SIRT3, Homo sapiens, UniProt Q9NTG7)", "assay": "enzyme activity, inhibitor, fluorescence", "IC50": "> 100000 nM"}
{"SMILES": "COC(=O)[C@H](Cc1c[nH]c2ccccc12)NCc1cc2ccccc2nc1SC", "target": "ATP synthase subunit c, whole ATP synthase complex (atpE, Pseudomonas aeruginosa, UniProt Q9HT15)", "assay": "ATP synthesis, inhibitor", "system": "Pseudomonas aeruginosa, inverted membrane vesicles", "conditions": "10 min, with: NADH", "IC50": "4930 nM"}
{"SMILES": "O=C(NCCCN1CCC(Cc2ccccc2)CC1)c1ccc(-c2ccccc2)cc1", "target": "Sodium-dependent dopamine transporter (SLC6A3, Homo sapiens, UniProt Q01959)", "assay": "transporter uptake, inhibitor, radiometric", "IC50": "> 10000 nM"}
{"SMILES": "CN(CC(=O)c1ccc2[nH]c(=O)[nH]c2c1)Cc1ccco1", "target": "DNA dC->dU-editing enzyme APOBEC-3B (Homo sapiens, UniProt Q9UH17)", "assay": "enzyme activity, inhibitor", "conditions": "pH 6", "IC50": "120000 nM"}
{"SMILES": "CN(c1ccccc1)S(=O)(=O)c1cccc(C(=O)N2CCN(C(=O)Cc3ccc(F)cc3)CC2)c1", "target": "KCNA2/KCNA1", "assay": "potassium current, inhibitor, automated patch clamp", "system": "CHO-K1, concatemer expressing", "IC50": "1660 nM"}
{"SMILES": "Cc1cc(NC(=O)[C@H](O)c2cc(F)cc(F)c2)ccc1-c1cnc(N)c(C(=O)NC(C)C)c1", "target": "Eukaryotic translation initiation factor 2-alpha kinase 1 (EIF2AK1, Homo sapiens, UniProt Q9BQI3)", "assay": "enzyme activity, inhibitor, FRET", "IC50": "2960 nM"}
{"SMILES": "CCCCCCCCCC(=O)OCCN1CCN(c2cc(Nc3ncc(C(=O)Nc4c(C)cccc4Cl)s3)nc(C)n2)CC1", "target": "Tyrosine-protein kinase CSK (CSK, Homo sapiens, UniProt P41240)", "assay": "enzyme activity, inhibitor", "IC50": "3200 nM"}
{"SMILES": "COc1ccccc1N1CCN(c2nc3c(c(=O)[nH]2)CCCC3)CC1", "target": "Poly [ADP-ribose] polymerase tankyrase-1 (TNKS, Homo sapiens, UniProt O95271)", "assay": "enzyme activity, inhibitor, ELISA", "IC50": "42.2 nM"}
{"SMILES": "CCCC[C@H](NC(C)=O)C(=O)N[C@@H](CO)C(=O)N[C@H](C(=O)N1CCC[C@H]1C(=O)N[C@]1(C)CCCCCCC=CCCC[C@@](C)(C(=O)N[C@@H](Cc2ccccc2)C(=O)N[C@@H](CCCCN)C(=O)N[C@@H](CCCNC(=N)N)C(=O)N[C@@H](CC(C)C)C(=O)N[C@@H](CCC(N)=O)C(N)=O)NC(=O)[C@H](CCCNC(=N)N)NC(=O)[C@H](CCCC)NC(=O)[C@H](CC(C)C)NC(=O)[C@H](CCCNC(=N)N)NC(=O)[C@H](CCCNC(=N)N)NC(=O)[C@H](CCCNC(=N)N)NC1=O)[C@@H](C)O", "target": "Ubiquitin-like modifier-activating enzyme 1 (UBA1, Homo sapiens, UniProt P22314)", "assay": "enzyme activity, inhibitor", "IC50": "2300 nM"}
{"SMILES": "O=C(CCCCCCNCc1ccc2c(c1)OCO2)NO", "target": "Histone deacetylase 2 (HDAC2, Homo sapiens, UniProt Q92769)", "assay": "enzyme activity, inhibitor, fluorescence", "IC50": "840 nM"}
{"SMILES": "CCC1(CC)C[C@@H](NC(=O)Nc2cccc3c(C)nccc23)c2cc(F)ccc2O1", "target": "Transient receptor potential cation channel subfamily V member 1 (TRPV1, Homo sapiens, UniProt Q8NER1)", "assay": "calcium signal, antagonist, fluorescence", "IC50": "19 nM"}
{"SMILES": "O=C(NO)c1ccc(Cn2sc3ccccc3c2=O)cc1", "target": "HDAC11", "assay": "enzyme activity, inhibitor", "IC50": "> 10000 nM"}
{"SMILES": "N#Cc1c(C(F)(F)F)cc(-c2ccc(Cl)cc2)nc1SCC(=O)Nc1ccccc1F", "target": "Trace amine-associated receptor 1 (TAAR1, Homo sapiens, UniProt Q96RJ0)", "IC50": "> 10000 nM"}
{"SMILES": "Cc1ncc2c(n1)CN(C(=O)Nc1nc(-c3cccs3)ccc1N)C2", "target": "HDAC11", "assay": "deacetylase activity, inhibitor, recombinant enzyme", "IC50": "> 30000 nM"}
{"SMILES": "C[C@H](OP(=O)(O)O)[C@H]1NC(=O)[C@H](CCCNC(=N)N)NC(=O)[C@@H](CCCNC(=N)N)NC(=O)[C@H](CCCNC(=N)N)NC(=O)[C@@H](Cc2ccc3ccccc3c2)NC(=O)[C@H](Cc2ccc3ccccc3c2)NC(=O)[C@@H]2CCCCN2C1=O", "target": "Peptidyl-prolyl cis-trans isomerase NIMA-interacting 1 (PIN1, Homo sapiens, UniProt Q13526)", "assay": "fluorescence anisotropy competition", "conditions": "with: FITC-labelled probe", "IC50": "> 10000 nM"}
{"SMILES": "O=C(NCCCCn1ccc2ccc(F)cc21)OC(C(F)(F)F)C(F)(F)F", "target": "Fatty-acid amide hydrolase 1 (Faah, Rattus norvegicus, UniProt P97612)", "assay": "enzyme activity, inhibitor", "IC50": "2600 nM"}
{"SMILES": "CC(C)C[C@H](NC(=O)OCc1cccc(Cl)c1)C(=O)N[C@@H](C[C@H]1CCNC1=O)C(=O)C(=O)NC1CC1", "target": "Genome polyprotein, 3C protease (rhinovirus B14, UniProt P03303)", "assay": "3C protease activity, inhibitor, FRET", "IC50": "160 ± 10 nM"}
{"SMILES": "CNC(=O)C(CS)N1C(=O)c2ccc(N(C)C)cc2C1=O (centres unmarked)", "target": "Metallo-beta-lactamase VIM-2 (VIM-2, Escherichia coli, UniProt Q5U7L7)", "assay": "enzyme activity, inhibitor", "conditions": "pH 7", "IC50": "2300 nM"}
{"SMILES": "C[C@H](NC(=O)[C@@H](N)CCCNC(=N)N)C(=O)N[C@@H](Cc1c[nH]c2ccccc12)C(N)=O", "target": "Ephrin type-B receptor 4 (Mus musculus, UniProt P54761)", "assay": "ephrin-B2 binding, inhibitor", "conditions": "1 h, with: ephrin-B2 AP 0.02 nM", "IC50": "> 100000 nM"}
{"SMILES": "Cn1cc(-c2cc(N3CCCCS3(=O)=O)ccc2N[C@H]2CC[C@H](C)CC2)c2cc[nH]c2c1=O (stereo in doubt)", "target": "Bromodomain-containing protein 4, BD1 (BRD4, Homo sapiens, UniProt O60885)", "assay": "cell-free assay, TR-FRET", "IC50": "0.99 nM"}
{"SMILES": "Cc1ccc(CNC(=O)C(CCc2ccccc2)NC(=O)C(NC(=O)c2ccc(OCc3ccc(C(C)(C)C)cc3)cc2)C(C)O)cc1 (centres unmarked)", "target": "Proteasome component C5/PSMB5 (Homo sapiens, UniProt P20618+P28074)", "assay": "inhibitor", "IC50": "340 nM and ~500 nM"}
{"SMILES": "CCNC(=O)[C@H](CC(C)C)NC(=O)[C@H](Cc1c[nH]cn1)NC(=O)CNC(=O)[C@@H](NC(=O)[C@H](C)NC(=O)[C@H](Cc1c[nH]c2ccccc12)NC(=O)[C@H](CCC(N)=O)NC(=O)[C@@H](Cc1ccccc1)NC(=O)[C@H](CC(N)=O)NC(=O)[C@H](CC(=O)O)NC(=O)[C@H](CCCNC(=N)N)NC(=O)CNC(=O)CNC(=O)CNC(=O)C(C)F)C(C)C (some centres unmarked)", "target": "Gastrin-releasing peptide receptor (GRPR, Homo sapiens, UniProt P30550)", "assay": "ligand displacement, radioligand", "IC50": "94.3 nM"}
{"SMILES": "CCC/C(=C\\C1=C(OC)C(=O)c2ccccc2C1=O)C(=O)NOC", "target": "DNA repair nuclease/redox regulator APEX1 (APEX1, Homo sapiens, UniProt P27695)", "assay": "protein-nucleic acid interaction, inhibitor", "IC50": "< 1000 nM"}
{"SMILES": "CCOc1ccc(NS(=O)(=O)c2ccc(C)c(C(=O)N3CCOC(c4ccccc4)C3)c2)cc1 (centres unmarked)", "target": "KCNA2/KCNA1", "assay": "potassium current, inhibitor, automated patch clamp", "system": "CHO-K1, concatemer expressing", "IC50": "3770 nM"}
{"SMILES": "COC(=O)N1CCC(CN2CCC(CNC(=O)c3cccc4[nH]c(C(C)C)nc34)CC2)CC1", "target": "Solute carrier organic anion transporter family member 1B3 (SLCO1B3, Homo sapiens, UniProt Q9NPD5)", "assay": "transporter uptake, inhibitor", "IC50": "> 10000 nM"}
{"note": "Excerpt of the above:"}
{"SMILES": "Cn1cc(-c2cc(N3CCCCS3(=O)=O)ccc2N[C@H]2CC[C@H](C)CC2)c2cc[nH]c2c1=O (stereo in doubt)", "target": "Bromodomain-containing protein 4, BD1 (BRD4, Homo sapiens, UniProt O60885)", "assay": "cell-free assay, TR-FRET", "IC50": "0.99 nM"}
{"SMILES": "CCC1(CC)C[C@@H](NC(=O)Nc2cccc3c(C)nccc23)c2cc(F)ccc2O1", "target": "Transient receptor potential cation channel subfamily V member 1 (TRPV1, Homo sapiens, UniProt Q8NER1)", "assay": "calcium signal, antagonist, fluorescence", "IC50": "19 nM"}
